Assay results collected from several papers.
Each numbered part is a random draw from the data of one study; scales do not carry over between parts.

Series 1
Target: Centromere-binding protein 1, full length, N-terminal tag (CBF1, Saccharomyces cerevisiae, UniProt P17106, residues 1-351)
Sequence of UniProt P17106 (whole entry, looked up): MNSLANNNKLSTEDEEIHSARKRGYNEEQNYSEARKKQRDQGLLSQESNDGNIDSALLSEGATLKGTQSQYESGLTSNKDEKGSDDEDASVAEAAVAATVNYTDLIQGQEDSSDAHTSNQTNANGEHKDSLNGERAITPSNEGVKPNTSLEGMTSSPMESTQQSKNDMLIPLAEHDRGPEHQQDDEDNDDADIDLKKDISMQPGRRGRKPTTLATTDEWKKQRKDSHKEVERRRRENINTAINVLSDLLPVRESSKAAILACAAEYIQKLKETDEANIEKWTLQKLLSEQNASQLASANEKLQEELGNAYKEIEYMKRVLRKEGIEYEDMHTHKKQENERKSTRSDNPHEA
Technique: protein-binding microarray
Molecule type: double-stranded DNA, one strand shown
Matrix: in vitro
Concentration: 0.8 µM
Notes: whole 60-bp probe, no competitor
Reading: higher = stronger binding
Constant ends, left off below: … GTCTTGATTCGCTTGACGCTGCTG
Strand	fluorescence intensity [a.u.]
GAACTTCTTTTGGTGCACGTACCTTTTGGACTGTAG	563
GAAATTTAAACTTTTTAGGTGACGTTTCTCTTCTAG	496
CTATTTTTTGATATCCACACGTTATTGAGCTCATTC	545
GAAAACTAACGAGAACACGTTCACTACAGACATTAG	572
CTAATACAGAATCTGATCATGACTATCAATCGGTTC	608

Series 2
Target: Histone acetyltransferase KAT6A, winged helix 2, GST fusion (KAT6A, Homo sapiens, UniProt Q92794, residues 85-181)
Technique: protein binding microarray
Molecule type: double-stranded DNA, one strand shown
Matrix: in vitro
Concentration: not given
Notes: 8-mer, flanks averaged, mean of 2 arrays, mostly near background
Baseline: not given
Reading: higher = stronger binding
Construct (chain): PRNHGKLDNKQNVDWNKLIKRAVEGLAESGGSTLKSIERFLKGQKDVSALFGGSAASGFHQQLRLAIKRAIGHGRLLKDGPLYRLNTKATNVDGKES
Strand	E-score
AGGTTTGA	0.03
ACTCAGTC	-0.147
AGATGAGA	-0.108
CTACCTCC	0.0541
AATCCAAT	-0.129
ACCGGGAA	0.0484
GATACAGC	-0.0333
CGCAATGA	-0.0517
AGGGCGGG	0.237

Series 3
Target: Fragile X messenger ribonucleoprotein 1, C-terminal low-complexity region (Fmr1, Mus musculus, UniProt P35922)
Technique: RNA Bind-n-Seq
Molecule type: RNA
Matrix: in vitro
Concentration: 200 nM
Notes: whole 134-nt RNA, ends assumed
Added: 150 mM KCl
Baseline: input library
Reading: higher = stronger binding
Constant ends, left off below: GGGAGUUCUACAGUCCGACGAUC … UGGAAUUCUCGGGUGUCAAGG
Strand	log2 enrichment
UCCUGUGCUACACAUCGUAUGUACCGAAUCGGGGUUUUUUGGUUUUUUGGGUUUUUUGGGAAAGUAUUAUGUUACGCCGUUCGGAUCUGC	-0.0425
GCAUGAAGUAAAAACAAAUGGAAAUGCUUCGGAUAGUGGCAGGGGUGGGGGUUGCUAAGGAAAGGGUGGGAUGGGAGUGGGUAAAGAGUU	0.254
ACCAUGCAGGUGGGCAUCUUUGGGAAAUGGGGCAAGGGGGGGAUAGGGAGGGGGGUAACACUUUGGGAACAGGUGGUCCCAGGUCGUUUC	0.981
UCAAGUCCUGUGCUACACAUCGUAUGUACCGAAUCGGUUGGGGUUGGGGUUGGGAAAGUAUUAUGUUACGCCGUUCGGAUCUGCACUUCC	1.13
UGGCCCUGGUGGCAUGCGGGGAGGAAGAGGUGGCCUCAUGGAUCGUGGUGGUCCCGGUGGAAUGUUCAGAGGUGGCUGUGGUGGAGACAG	0.234
AAGUCCUGUGCUACACAUCGUAUGUACCGAAUCGUGUGUGUGUGUGUGUGUGUGUGUAAAGUAUUAUGUUACGCCGUUCGGAUCUGCACU	0.459
GUCCUGUGCUACACAUCGUAUGUACCGAAUCGGGGUGGGGUUUUUUUGGGGAAAGGGGAAAGUAUUAUGUUACGCCGUUCGGAUCUGCAC	0.619
ACCAUGCAGGUGGGCAUCUUAAAGAAGUGGGGCAAGGGGGGGAUAGGGAGGGGGGUAACACUUUGGGAACAGGUGGUCCCAGGUCGUUUC	1.02
UGGGAGGUGGAUUUUGUUUAUUUUUUUAGCUCAUUUCCAGGGGUGGGAAGUUUUUUUUAAUAUGUGUCAUGAAUAAAGUUGUUUUUGAAA	0.459

Mixed results
Substance	target	test	system	setting	scale	endpoint	value
PhoQ, residues 284 288 289 292 302 303 NSMLDC	PhoP, residues 12 14 15 18 19 LHHSG (Escherichia coli, UniProt P23836)	Sort-seq, measured: YFP reporter	E. coli	PhoQ-PhoP variant library, added: 10 µM Mg2+	baseline: high Mg2+ state, higher = stronger signaling	fold induction	20.1

Repeated from above (series 2):
Strand	E-score
ACCGGGAA	0.0484
GATACAGC	-0.0333
CGCAATGA	-0.0517
AGGGCGGG	0.237
